Results pooled from the literature.
± gives the spread as reported.

`Clc1ccc(Cl)c(-c2cc(Cl)c(Cl)cc2Cl)c1` has a log K(PDMS-water) of 5.97 ± 0.02 (fresh water; 20 °C, SSP sampler, 100 µm).
For `CC[C@H](C)[C@H](NC(C)=O)C(=O)N[C@H]1CSSC[C@@H](C(=O)N[C@H](C(N)=O)[C@@H](C)O)NC(=O)[C@H](CCCNC(=N)N)NC(=O)[C@H](Cc2c[nH]cn2)NC(=O)[C@H](Cc2cccc3ccccc23)NC(=O)CNC(=O)[C@H](Cc2c[nH]c3ccccc23)NC(=O)[C@H](CC(=O)O)NC(=O)[C@H](CCC(N)=O)NC(=O)[C@H](Cc2c[nH]c3ccccc23)NC(=O)[C@H](C(C)C)NC1=O`, “log retention factor” read 0.699 (isocratic RP-HPLC, C18; 32% acetonitrile, phosphate pH 7.4, 1% TFA; 25 °C).
For `CN(C)C(=O)Oc1cccc2c1[n+]([O-])c1ccccc1[n+]2[O-]`, “log effective permeability” read -4.95 (PAMPA; artificial membrane in PBS; 50 µM, 5 h).
With `COc1ccnc(C(=O)N[C@H]2COC(=O)[C@H](Cc3ccccc3)[C@@H](OC(=O)C(C)C)[C@H](C)OC2=O)c1OCOC(=O)C(C)C` the log Kow was 4.4 (pH 7, 20 °C).
For `CN1CC[C@]23c4c5ccc(O)c4O[C@H]2[C@@H](O)C=C[C@@]3(O)[C@H]1C5`, “log k amino protonation” read 9.08 (phenolate protonated).
`Clc1ccc(-c2ccc(Cl)cc2Cl)cc1` has a log K(PDMS-water) of 5.2 ± 0.04 (fresh water; 20 °C, S100 sampler, 100 µm).
`CC(=O)N[C@@H](CC(N)=O)C(=O)N[C@@H](CC(N)=O)C(=O)N[C@@H](CC(C)C)C(=O)N[C@H]1CSSC[C@@H](C(=O)N[C@H](C(N)=O)[C@@H](C)O)NC(=O)[C@H](CCCNC(=N)N)NC(=O)[C@H](Cc2c[nH]cn2)NC(=O)[C@H](C)NC(=O)CNC(=O)[C@H](Cc2c[nH]c3ccccc23)NC(=O)[C@H](CC(=O)O)NC(=O)[C@H](CCC(N)=O)NC(=O)[C@H](Cc2c[nH]c3ccccc23)NC(=O)[C@H](C(C)C)NC1=O` — result for “log retention factor”: -0.402 (isocratic RP-HPLC, C18; 32% acetonitrile, phosphate pH 7.4, 1% TFA; 25 °C).
With `Clc1cc(Cl)c(-c2cc(Cl)c(Cl)c(Cl)c2Cl)cc1Cl` the log K(PDMS-water) was 6.54 ± 0.1 (fresh water; 12 (unit not given), 20 °C, SSP sampler, 100 µm).
`CN1CC[C@]23c4c5ccc(O)c4O[C@H]2[C@@H](O)CC[C@H]3[C@H]1C5`: “log k amino protonation” 9.49.
Under “log retention factor”, `CC(=O)N[C@@H](CC(N)=O)C(=O)N[C@@H](CCCNC(=N)N)C(=O)N[C@@H](CC(C)C)C(=O)N[C@H]1CSSC[C@@H](C(=O)N[C@H](C(N)=O)[C@@H](C)O)NC(=O)[C@H](CCCNC(=N)N)NC(=O)[C@H](Cc2c[nH]cn2)NC(=O)[C@H](Cc2cccc3ccccc23)NC(=O)CNC(=O)[C@H](Cc2c[nH]c3ccccc23)NC(=O)[C@H](CC(=O)O)NC(=O)[C@H](CCC(N)=O)NC(=O)[C@H](Cc2c[nH]c3ccccc23)NC(=O)[C@H](C(C)C)NC1=O` is recorded as 0.43 (isocratic RP-HPLC; C18 column; pH 7.4, 25 °C, elution method 2; higher = more lipophilic).
For `CN1CC[C@]23c4c5ccc(O)c4O[C@H]2[C@@H](O)CC[C@@]3(O)[C@H]1C5`, “log k amino protonation” read 9.48 (phenolate protonated).
Under “log retention factor”, `CC[C@H](C)[C@H](NC(=O)[C@H](CO)NC(=O)[C@H](CCCNC(=N)N)NC(C)=O)C(=O)N[C@H]1CSSC[C@@H](C(=O)N[C@H](C(N)=O)[C@@H](C)O)NC(=O)[C@H](CCCNC(=N)N)NC(=O)[C@H](Cc2c[nH]cn2)NC(=O)[C@H](Cc2cccc3ccccc23)NC(=O)CNC(=O)[C@H](Cc2c[nH]c3ccccc23)NC(=O)[C@H](CC(=O)O)NC(=O)[C@H](CCC(N)=O)NC(=O)[C@H](Cc2c[nH]c3ccccc23)NC(=O)[C@H](C(C)C)NC1=O` is recorded as 0.417 (isocratic RP-HPLC; C18 column; pH 7.4, 25 °C, elution method 2; higher = more lipophilic).
With `Clc1ccc(Cl)c(-c2ccccc2Cl)c1` the log K(PDMS-water) was 5.04 (fresh water; 20 °C, S30-2 sampler, 30 µm).

A few entries again:
For `CN(C)C(=O)Oc1cccc2c1[n+]([O-])c1ccccc1[n+]2[O-]`, “log effective permeability” read -4.95 (PAMPA; artificial membrane in PBS; 50 µM, 5 h).
With `COc1ccnc(C(=O)N[C@H]2COC(=O)[C@H](Cc3ccccc3)[C@@H](OC(=O)C(C)C)[C@H](C)OC2=O)c1OCOC(=O)C(C)C` the log Kow was 4.4 (pH 7, 20 °C).
